Published values gathered from unrelated publications.
A part holds a random share of what one study measured. Changes are numbered by the printed parent chain.

Sample 1
Target: tungstate, free oxyanion
Technique: microfluidic competitive inhibition
Sample: in vitro, cell-free expressed
Tested at: not given
Setting: derived from inhibition constants, unchanged parent 2230 nM
Direction: lower = stronger binding
Measurement: oxyanion analog dissociation constant
Starting sequence: PafA, mature enzyme, eGFP fusion (Elizabethkingia meningoseptica, UniProt Q9KJX5); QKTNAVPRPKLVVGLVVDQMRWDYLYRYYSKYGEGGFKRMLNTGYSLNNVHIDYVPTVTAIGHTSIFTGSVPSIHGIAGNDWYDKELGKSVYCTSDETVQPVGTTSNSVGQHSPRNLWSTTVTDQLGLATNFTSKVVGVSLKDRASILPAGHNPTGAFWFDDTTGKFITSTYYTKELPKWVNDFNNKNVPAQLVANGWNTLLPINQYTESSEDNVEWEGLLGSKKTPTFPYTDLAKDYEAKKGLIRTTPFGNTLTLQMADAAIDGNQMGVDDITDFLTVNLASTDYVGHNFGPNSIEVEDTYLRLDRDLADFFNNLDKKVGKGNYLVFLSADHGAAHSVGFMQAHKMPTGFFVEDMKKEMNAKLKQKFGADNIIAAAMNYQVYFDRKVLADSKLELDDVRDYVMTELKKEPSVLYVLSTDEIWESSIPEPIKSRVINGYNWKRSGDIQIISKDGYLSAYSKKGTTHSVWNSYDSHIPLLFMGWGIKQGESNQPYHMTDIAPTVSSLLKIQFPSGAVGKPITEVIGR
A282G: 12.3 µM
D398G: 2.14 µM
V413A: 2.83 µM

Sample 2
Target: CCNB2, cyclin fold, Cln2 fusion (human)
Technique: yeast growth competition, sequencing
Sample: yeast
Setting: strong parent motif
Reference: not given
Direction: higher = stronger binding
Measurement: normalised enrichment score
Starting sequence: viral docking peptide; KKAKRRLFTISDS; partner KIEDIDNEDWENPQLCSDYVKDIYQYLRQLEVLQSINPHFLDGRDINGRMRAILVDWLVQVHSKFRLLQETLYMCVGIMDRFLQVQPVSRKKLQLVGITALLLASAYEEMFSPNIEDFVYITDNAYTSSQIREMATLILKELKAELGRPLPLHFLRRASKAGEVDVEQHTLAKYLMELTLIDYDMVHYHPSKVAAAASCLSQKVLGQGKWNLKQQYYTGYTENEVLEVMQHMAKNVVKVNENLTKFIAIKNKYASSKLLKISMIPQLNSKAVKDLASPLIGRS
K2A: 0.67
F8L: 0.823
S13A: 0.785
R6A: 0.604
K4A: 0.612
S11A: 0.843
I10A: 0.852

Sample 3
Target: Centromere-binding protein 1, full length, N-terminal tag (CBF1, Saccharomyces cerevisiae, UniProt P17106, residues 1-351)
Chain of UniProt P17106 (whole entry, looked up): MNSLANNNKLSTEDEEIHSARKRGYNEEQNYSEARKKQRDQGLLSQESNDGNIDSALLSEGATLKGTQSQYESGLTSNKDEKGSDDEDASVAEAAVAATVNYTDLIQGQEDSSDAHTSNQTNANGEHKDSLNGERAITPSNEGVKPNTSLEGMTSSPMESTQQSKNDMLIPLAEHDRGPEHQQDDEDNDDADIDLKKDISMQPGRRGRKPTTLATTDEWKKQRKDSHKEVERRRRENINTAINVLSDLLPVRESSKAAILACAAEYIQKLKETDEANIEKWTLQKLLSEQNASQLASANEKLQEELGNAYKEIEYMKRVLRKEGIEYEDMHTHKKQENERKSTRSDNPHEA
Technique: protein-binding microarray
Form: double-stranded DNA, one strand shown
Sample: in vitro
Tested at: 0.8 µM
Setting: whole 60-bp probe, no competitor
Direction: higher = stronger binding
Measurement: fluorescence intensity
All sequences stand within: … GTCTTGATTCGCTTGACGCTGCTG
GAACCACTATTTCGTCACCCGCTCGAGGTGGCTTAG: 514 a.u.
CTATCCCACATGATTCACCTGATTACGACTCACTTC: 991 a.u.
GAAGCATTTGATGGCCGTCACATGGTACGCCACTAG: 3750 a.u.
GAAGCCAAAGTAAACCCCGTGTACTTTCAAAAGTAG: 793 a.u.
CTATATCGACAGCTTCACGTGCCATTTGCCATTTTC: 3260 a.u.
GAATGCTTATATAATCACGAACACCTTTACGTATAG: 587 a.u.
CTATAACAAAGAAGGTGACTTGCGCTTAATTAGTTC: 550 a.u.
TGTACGAAGCTATCGTGCATTCCTATAGTAGTTAGG: 513 a.u.

Sample 4
Target: UDP-N-acetylglucosamine--peptide N-acetylglucosaminyltransferase 110 kDa subunit (OGT, Homo sapiens, UniProt O15294)
Chain of UniProt O15294 (whole entry, looked up): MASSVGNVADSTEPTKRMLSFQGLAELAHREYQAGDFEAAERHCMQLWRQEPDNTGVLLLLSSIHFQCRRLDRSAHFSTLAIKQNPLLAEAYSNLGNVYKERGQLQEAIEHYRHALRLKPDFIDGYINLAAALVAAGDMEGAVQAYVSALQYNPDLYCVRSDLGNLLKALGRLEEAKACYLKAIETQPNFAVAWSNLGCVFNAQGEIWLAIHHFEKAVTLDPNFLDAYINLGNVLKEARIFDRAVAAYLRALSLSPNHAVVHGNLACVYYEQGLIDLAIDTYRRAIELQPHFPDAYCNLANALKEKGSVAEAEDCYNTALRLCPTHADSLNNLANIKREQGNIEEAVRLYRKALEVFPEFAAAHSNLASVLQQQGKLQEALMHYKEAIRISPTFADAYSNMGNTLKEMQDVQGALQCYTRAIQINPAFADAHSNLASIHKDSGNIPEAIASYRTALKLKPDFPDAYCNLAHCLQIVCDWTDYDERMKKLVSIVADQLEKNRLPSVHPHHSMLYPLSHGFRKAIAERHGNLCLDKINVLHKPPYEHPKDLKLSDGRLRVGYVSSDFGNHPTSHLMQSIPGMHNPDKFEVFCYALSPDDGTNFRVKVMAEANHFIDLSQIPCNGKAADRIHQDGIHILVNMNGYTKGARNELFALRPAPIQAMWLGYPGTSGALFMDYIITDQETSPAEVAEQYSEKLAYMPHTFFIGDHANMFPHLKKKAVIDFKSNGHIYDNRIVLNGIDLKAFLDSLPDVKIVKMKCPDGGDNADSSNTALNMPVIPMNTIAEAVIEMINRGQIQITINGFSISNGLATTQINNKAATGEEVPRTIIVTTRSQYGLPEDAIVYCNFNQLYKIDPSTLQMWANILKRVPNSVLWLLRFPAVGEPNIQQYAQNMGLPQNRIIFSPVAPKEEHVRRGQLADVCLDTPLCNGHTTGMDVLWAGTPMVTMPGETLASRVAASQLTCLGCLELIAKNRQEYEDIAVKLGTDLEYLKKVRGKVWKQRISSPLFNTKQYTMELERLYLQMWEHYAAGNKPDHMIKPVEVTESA
Read-out: binding
Technique: phage display NGS
Form: peptide
Setting: panning round 2
Reference: input library
Measurement: minimum log2 enrichment ratio
NQYHHGNTGNFHTHP: 2.93
YFGRVTFPPKYQIVF: 4.85
HVHGASPHSRNHSA: 2.62
HIKWSTGWHHQGRT: 1.94

Repeated from above (sample 3):
GAAGCATTTGATGGCCGTCACATGGTACGCCACTAG: 3750 a.u.
CTATCCCACATGATTCACCTGATTACGACTCACTTC: 991 a.u.
GAATGCTTATATAATCACGAACACCTTTACGTATAG: 587 a.u.
CTATAACAAAGAAGGTGACTTGCGCTTAATTAGTTC: 550 a.u.
